Measured values gathered from unrelated publications.
A part holds a random share of what one study measured.
UniProt O94921, sequence (whole entry, looked up): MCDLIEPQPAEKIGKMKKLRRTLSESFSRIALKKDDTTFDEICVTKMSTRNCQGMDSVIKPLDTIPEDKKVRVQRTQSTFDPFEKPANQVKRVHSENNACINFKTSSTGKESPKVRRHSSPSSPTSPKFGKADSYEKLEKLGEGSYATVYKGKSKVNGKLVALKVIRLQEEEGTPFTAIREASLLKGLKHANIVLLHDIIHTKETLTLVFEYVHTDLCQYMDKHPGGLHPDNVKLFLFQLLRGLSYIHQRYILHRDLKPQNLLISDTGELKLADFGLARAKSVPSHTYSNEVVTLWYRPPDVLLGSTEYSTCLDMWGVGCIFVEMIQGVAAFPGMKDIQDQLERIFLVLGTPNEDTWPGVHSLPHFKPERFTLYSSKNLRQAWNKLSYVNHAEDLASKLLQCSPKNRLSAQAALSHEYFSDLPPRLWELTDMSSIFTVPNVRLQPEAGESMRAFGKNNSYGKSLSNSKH
UniProt P11309, sequence (whole entry, looked up): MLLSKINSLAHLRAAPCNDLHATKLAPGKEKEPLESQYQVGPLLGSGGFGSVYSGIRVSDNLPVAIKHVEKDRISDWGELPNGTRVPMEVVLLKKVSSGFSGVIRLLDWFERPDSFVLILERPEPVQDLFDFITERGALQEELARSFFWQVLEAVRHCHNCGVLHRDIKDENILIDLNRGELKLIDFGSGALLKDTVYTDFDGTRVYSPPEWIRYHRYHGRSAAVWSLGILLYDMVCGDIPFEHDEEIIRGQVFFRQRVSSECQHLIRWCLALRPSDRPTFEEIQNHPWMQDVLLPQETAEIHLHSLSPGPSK
UniProt P30530, sequence (whole entry, looked up): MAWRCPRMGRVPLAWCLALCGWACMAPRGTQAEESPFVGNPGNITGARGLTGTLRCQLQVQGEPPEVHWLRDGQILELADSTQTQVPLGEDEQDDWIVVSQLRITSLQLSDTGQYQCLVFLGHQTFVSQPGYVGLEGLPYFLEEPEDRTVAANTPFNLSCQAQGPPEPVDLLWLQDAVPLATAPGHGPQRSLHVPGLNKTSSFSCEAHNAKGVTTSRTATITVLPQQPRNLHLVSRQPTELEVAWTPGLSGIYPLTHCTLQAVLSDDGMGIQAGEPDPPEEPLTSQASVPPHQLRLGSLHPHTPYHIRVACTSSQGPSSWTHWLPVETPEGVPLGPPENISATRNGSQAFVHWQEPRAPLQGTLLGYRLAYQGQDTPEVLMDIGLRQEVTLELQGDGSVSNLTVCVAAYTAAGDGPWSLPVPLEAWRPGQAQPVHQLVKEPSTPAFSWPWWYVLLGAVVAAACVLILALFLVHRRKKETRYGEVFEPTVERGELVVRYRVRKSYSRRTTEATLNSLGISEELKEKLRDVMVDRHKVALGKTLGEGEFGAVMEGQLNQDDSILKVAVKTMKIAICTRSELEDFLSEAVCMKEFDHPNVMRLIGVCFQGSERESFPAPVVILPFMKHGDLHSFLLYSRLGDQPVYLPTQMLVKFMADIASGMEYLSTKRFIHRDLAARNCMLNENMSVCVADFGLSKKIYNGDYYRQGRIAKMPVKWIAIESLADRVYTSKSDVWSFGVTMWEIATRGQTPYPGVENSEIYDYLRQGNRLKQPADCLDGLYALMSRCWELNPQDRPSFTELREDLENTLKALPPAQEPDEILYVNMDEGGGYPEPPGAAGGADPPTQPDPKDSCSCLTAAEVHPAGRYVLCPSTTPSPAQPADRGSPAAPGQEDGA
UniProt P10721, sequence (whole entry, unmodified, looked up): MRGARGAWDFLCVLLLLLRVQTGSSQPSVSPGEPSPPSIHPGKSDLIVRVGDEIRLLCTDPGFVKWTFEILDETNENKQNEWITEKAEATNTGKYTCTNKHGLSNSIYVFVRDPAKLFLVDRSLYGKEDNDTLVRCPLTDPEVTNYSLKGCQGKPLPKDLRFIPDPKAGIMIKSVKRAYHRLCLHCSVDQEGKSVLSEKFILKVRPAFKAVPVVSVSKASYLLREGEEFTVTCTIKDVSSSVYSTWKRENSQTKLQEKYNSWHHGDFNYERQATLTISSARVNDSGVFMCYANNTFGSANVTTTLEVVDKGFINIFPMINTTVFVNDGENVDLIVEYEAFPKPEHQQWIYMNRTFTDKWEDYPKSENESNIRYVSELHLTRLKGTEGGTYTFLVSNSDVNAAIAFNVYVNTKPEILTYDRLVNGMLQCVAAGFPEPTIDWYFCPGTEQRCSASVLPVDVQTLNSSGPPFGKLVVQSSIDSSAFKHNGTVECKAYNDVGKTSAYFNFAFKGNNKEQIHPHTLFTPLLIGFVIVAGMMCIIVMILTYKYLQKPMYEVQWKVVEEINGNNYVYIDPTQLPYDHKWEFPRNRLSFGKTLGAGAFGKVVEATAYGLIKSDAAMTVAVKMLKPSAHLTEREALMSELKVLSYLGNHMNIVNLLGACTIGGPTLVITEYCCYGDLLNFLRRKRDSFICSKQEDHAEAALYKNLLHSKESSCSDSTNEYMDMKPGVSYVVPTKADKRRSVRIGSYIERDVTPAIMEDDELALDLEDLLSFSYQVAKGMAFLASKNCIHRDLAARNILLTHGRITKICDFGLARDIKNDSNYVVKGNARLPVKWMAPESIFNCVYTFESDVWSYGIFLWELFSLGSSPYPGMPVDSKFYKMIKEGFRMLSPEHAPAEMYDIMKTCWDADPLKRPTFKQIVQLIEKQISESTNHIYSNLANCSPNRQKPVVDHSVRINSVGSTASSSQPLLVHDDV
UniProt Q14004, sequence (whole entry, looked up): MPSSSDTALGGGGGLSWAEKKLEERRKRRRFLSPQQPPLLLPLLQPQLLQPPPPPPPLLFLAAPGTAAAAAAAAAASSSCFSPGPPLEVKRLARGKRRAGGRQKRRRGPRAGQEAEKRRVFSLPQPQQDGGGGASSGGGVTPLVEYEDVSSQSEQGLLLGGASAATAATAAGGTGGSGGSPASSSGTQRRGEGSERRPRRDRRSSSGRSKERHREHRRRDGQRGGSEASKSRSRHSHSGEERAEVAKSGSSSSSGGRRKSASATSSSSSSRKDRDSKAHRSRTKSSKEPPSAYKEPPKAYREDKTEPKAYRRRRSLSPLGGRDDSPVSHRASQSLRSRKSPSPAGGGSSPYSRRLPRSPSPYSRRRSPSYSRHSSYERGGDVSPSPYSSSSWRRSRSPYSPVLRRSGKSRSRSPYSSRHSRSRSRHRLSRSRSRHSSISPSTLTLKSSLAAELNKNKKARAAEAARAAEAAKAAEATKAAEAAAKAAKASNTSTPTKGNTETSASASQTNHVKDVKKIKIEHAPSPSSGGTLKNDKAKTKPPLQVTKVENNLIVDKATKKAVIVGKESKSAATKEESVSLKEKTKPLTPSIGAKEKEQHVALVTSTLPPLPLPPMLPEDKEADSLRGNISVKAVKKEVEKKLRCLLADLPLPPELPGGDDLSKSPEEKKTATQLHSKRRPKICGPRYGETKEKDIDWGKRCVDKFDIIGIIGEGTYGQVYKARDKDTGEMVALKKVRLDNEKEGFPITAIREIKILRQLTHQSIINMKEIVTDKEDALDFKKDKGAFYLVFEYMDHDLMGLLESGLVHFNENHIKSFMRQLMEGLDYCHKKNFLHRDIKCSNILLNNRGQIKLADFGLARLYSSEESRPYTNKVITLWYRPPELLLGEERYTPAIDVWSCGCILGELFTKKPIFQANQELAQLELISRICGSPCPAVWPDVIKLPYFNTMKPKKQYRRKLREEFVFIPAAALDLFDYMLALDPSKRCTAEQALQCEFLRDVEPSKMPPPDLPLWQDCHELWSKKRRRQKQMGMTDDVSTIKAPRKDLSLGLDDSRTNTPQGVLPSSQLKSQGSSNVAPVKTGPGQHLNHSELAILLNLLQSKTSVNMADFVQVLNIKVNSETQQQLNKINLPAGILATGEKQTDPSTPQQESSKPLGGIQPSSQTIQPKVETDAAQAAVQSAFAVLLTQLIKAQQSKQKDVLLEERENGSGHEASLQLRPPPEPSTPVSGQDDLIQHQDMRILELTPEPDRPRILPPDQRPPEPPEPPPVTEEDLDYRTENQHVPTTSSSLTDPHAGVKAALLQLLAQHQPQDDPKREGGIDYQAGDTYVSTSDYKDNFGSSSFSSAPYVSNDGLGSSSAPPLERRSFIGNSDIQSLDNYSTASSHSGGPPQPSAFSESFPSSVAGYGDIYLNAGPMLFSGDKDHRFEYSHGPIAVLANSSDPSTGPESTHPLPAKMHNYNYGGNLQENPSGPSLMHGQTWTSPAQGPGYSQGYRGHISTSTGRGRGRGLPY
UniProt P48730, sequence (whole entry, looked up): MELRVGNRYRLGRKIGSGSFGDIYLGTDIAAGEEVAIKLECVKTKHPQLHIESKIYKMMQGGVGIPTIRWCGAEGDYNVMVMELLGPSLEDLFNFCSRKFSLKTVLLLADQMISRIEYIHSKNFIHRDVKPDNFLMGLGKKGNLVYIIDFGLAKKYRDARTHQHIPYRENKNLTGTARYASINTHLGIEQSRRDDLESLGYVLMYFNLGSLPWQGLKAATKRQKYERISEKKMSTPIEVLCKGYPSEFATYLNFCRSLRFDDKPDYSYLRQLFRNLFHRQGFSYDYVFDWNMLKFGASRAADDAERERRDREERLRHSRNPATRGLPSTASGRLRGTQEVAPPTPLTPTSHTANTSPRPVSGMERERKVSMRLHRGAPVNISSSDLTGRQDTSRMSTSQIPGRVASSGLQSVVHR
UniProt Q8TBX8, sequence (whole entry, looked up): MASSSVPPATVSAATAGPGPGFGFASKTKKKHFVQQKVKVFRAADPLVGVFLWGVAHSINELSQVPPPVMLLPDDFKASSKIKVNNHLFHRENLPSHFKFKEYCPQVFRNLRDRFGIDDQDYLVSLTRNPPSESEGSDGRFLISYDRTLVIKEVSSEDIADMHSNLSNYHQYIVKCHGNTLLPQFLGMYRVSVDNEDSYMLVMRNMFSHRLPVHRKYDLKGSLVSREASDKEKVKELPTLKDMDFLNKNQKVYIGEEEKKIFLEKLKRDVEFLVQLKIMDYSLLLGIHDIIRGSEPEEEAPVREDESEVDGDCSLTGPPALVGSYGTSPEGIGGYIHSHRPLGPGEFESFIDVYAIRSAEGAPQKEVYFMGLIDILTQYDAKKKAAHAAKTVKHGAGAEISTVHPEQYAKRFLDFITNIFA

Series 1
SMILES: O=c1nc(-c2ccccn2)sc2ccccc12
Method: competition with immobilised ligand
Tested at: 1 µM
For Phosphatidylinositol 5-phosphate 4-kinase type-2 gamma (PIP4K2C, Homo sapiens, UniProt Q8TBX8); binding: remaining binding read 98%.
For Tyrosine-protein kinase receptor UFO (AXL, Homo sapiens, UniProt P30530); binding: remaining binding read 100%.
Cyclin-dependent kinase 13 (CDK13, Homo sapiens, UniProt Q14004); binding — remaining binding: 75%.
It gave 100% for remaining binding (Testis-specific serine/threonine-protein kinase 1 (TSSK1B, Homo sapiens, UniProt Q9BXA7); binding).
Epidermal growth factor receptor (EGFR, Homo sapiens, UniProt P00533, T790M); cell-free assay — remaining binding: 100%.
Epidermal growth factor receptor (EGFR, Homo sapiens, UniProt P00533, del746-750); cell-free assay — remaining binding: 100%.
Serine/threonine-protein kinase pim-1 (PIM1, Homo sapiens, UniProt P11309); binding — remaining binding: 85%.
For Mast/stem cell growth factor receptor Kit (KIT, Homo sapiens, UniProt P10721, L576P); binding: remaining binding read 86%.
Dual specificity tyrosine-phosphorylation-regulated kinase 1B (DYRK1B, Homo sapiens, UniProt Q9Y463); cell-free assay — remaining binding: 100%.
For Dual specificity mitogen-activated protein kinase kinase 5 (MAP2K5, Homo sapiens, UniProt Q13163); binding: remaining binding read 79%.
It gave 81% for remaining binding (Casein kinase I isoform delta (CSNK1D, Homo sapiens, UniProt P48730); cell-free assay).
Dual specificity mitogen-activated protein kinase kinase 2 (MAP2K2, Homo sapiens, UniProt P36507); binding — remaining binding: 89%.
For Cyclin-dependent kinase 14 (CDK14, Homo sapiens, UniProt O94921); binding: remaining binding read 100%.
For Hepatocyte growth factor receptor (MET, Homo sapiens, UniProt P08581, M1250T); cell-free assay: remaining binding read 98%.
For NUAK family SNF1-like kinase 1 (NUAK1, Homo sapiens, UniProt O60285); binding: remaining binding read 100%.

Series 2
Cell line: A-375
Tested at: 100 µM
Time: 18 h
For `Oc1ccc(O)cc1`, the viability was 110%.
The viability of `COc1c2occc2cc2ccc(=O)oc12` is reported as 97.7%.
`Cc1c(NC(=O)c2cccnc2)c(=O)n(-c2ccccc2)n1C` has a viability of 78.9%.

Series 3
Target: Fragile X messenger ribonucleoprotein 1, C-terminal low-complexity region (Fmr1, Mus musculus, UniProt P35922)
Method: RNA Bind-n-Seq
Molecule type: RNA
Matrix: in vitro
Tested at: 200 nM
Setting: whole 134-nt RNA, ends assumed
With: 150 mM LiCl
Relative to: input library
Reading: higher = stronger binding
Library: 7-deaza-guanosine replaces G
All sequences stand within: GGGAGUUCUACAGUCCGACGAUC … UGGAAUUCUCGGGUGUCAAGG
The log2 enrichment of `CAAGUCCUGUGCUACACAUCGUAUGUACCGAAUCGGGCCCGGGGCCCGGGCCCGGAAAGUAUUAUGUUACGCCGUUCGGAUCUGCACUUC` is reported as -1.8.
`ACCAUGCAGGUGGGCAUCUUUGGGAAGUGGAGCAAGGGGGGGAUAGGGAGGGGGGUAACACUUUGGGAACAGGUGGUCCCAGGUCGUUUC` has a log2 enrichment of 1.35.
With `AAGUCCUGUGCUACACAUCGUAUGUACCGAAUCGGUUUGGUUUUUGGUUUUUUUGGAAAGUAUUAUGUUACGCCGUUCGGAUCUGCACUU` the log2 enrichment was -1.95.
The log2 enrichment of `UUAGAUGAGGACCUUGAGAUUGAAUUGGUUGAGGAAGAGCCUCCAUUCCUGAGAGGGCACACUAAGCAAAGCAUGGACAUGAGCCCCAUU` is reported as -1.21.
`UGGGAGGUGGAUUUUGUUUAUUUUUUUAGCUAAUUUCCAGGGGUGGGAAUUUUUUUUUAAUAUGUGUCAUGAAUAAAGUUGUUUUUGAAA` gave a log2 enrichment of 0.0391.
The log2 enrichment of `AGUCCUGUGCUACACAUCGUAUGUACCGAAUCGGGAAAAAGGGAAAAAAAGGGUGGGAAAGUAUUAUGUUACGCCGUUCGGAUCUGCACU` is reported as -1.13.
`AGUCCUGUGCUACACAUCGUAUGUACCGAAUCGGAAAAAAAGGUUUUUUUGGAAAGGAAAGUAUUAUGUUACGCCGUUCGGAUCUGCACU` has a log2 enrichment of -3.67.
The log2 enrichment of `UCCUCAAGUCCUGUGCUACACAUCGUAUGUACCGAAUCGGGAGGAGGGAGGGAAAGUAUUAUGUUACGCCGUUCGGAUCUGCACUUCCAG` is reported as -0.997.

Series 4
Host: mouse
Matrix: microsomes or S9
Tested at: 2 µM
Time: 0.5 h
With `Cc1ccc(OCCN2CCOCC2)c(NC(=O)c2cc3cc(C)ccc3n2C)c1` the remaining compound was 0.258%.
`Cc1ccccc1S(=O)(=O)Nc1cccc2[nH]ccc12` has a remaining compound of 79.2%.
With `CCC(CO)NCc1ccc(OCc2cccs2)cc1` (stereo not shown) the remaining compound was 1.33%.

Single results of other studies
Method: PRP chromatography estimate
Matrix: 1,9-decadiene/PBS
pH: 7.4
`CC(C)C[C@@H]1NC(=O)[C@H](CC(C)C)NC(=O)[C@@H](CC(C)C)NC(=O)[C@H](Cc2cscn2)NC(=O)[C@@H](CCC(=O)N2CCCC2)NC(=O)[C@H](Cc2cscn2)NC(=O)[C@H](C)NC1=O` has a logD of -2.87.
With `CC(C)C[C@@H]1NC(=O)[C@H](CCC(=O)N2CCCC2)NC(=O)[C@@H](C(C)C)NC(=O)[C@H](C)NC(=O)[C@H](CC(C)C)NC(=O)[C@@H](CC(C)C)NC(=O)[C@H](CC(C)C)NC1=O` the logD was -0.737.
